Experimental data of several laboratories.
± marks the error that the study gave.
Chain of UniProt P0A725 (whole entry, looked up): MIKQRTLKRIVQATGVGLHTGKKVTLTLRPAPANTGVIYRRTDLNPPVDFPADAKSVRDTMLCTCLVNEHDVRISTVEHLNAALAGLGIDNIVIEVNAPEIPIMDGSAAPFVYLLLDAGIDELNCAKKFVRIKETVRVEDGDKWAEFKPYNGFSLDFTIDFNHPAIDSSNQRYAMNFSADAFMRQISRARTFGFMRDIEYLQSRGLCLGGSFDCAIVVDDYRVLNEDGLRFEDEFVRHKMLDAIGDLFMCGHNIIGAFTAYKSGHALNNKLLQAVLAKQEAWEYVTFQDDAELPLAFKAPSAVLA

| Structure (SMILES) | tested on | test | test system | conditions | how to read | quantity | value |
| --- | --- | --- | --- | --- | --- | --- | --- |
| COc1ccc(CNc2nc(N3CCC[C@H]3CO)ncc2C(=O)NN)cc1Cl | Salmonella typhimurium |  | TA102 | 62.5 µg/plate, with: rat liver S9 |  | revertant count | 270 ± 5 |
| CCC(=O)N(C)c1ccc(Cl)c(Cl)c1 | Salmonella typhimurium | Ames test | TA100 | 0.50 mg/plate, without S9 |  | revertant colonies | 59 ± 16.8 revertants/plate |
| COc1ccc(CNc2nc(N3CCC[C@H]3CO)ncc2C(=O)NNC(=O)c2cnc(N3CCC[C@H]3CO)nc2NCc2ccc(OC)c(Cl)c2)cc1Cl | Salmonella typhimurium |  | TA1535 | 250 µg/plate, 48 h, with: rat liver S9 |  | revertant count | 23 ± 2 |
| C[C@@](O)(C(F)F)[C@H](NC(=O)c1ccc(C#CC#CC2CC2)cc1)C(=O)NO | UDP-3-O-acyl-N-acetylglucosamine deacetylase (Escherichia coli K-12, UniProt P0A725) | target binding in plasma, rapid equilibrium dialysis | mouse plasma | 10 µM, with: LpxC 5 µM in buffer |  | buffer-to-plasma concentration ratio | 0.21 ± 0.02 |
| CC(C)[C@H](NC(=O)CNC(=O)[C@H](CCC(N)=O)NC(=O)[C@H](C)N)C(=O)O |  |  | healthy human | intravenous, 10 mg/kg single dose | relative to: subjects | definitely drug-related adverse events | 0% |
| COC(=O)C[C@](O)(CCCC(C)(C)OC(C)=O)C(=O)O[C@@H]1C(OC)=C[C@]23CCCN2CCc2cc4c(cc2[C@H]13)OCO4 |  |  | CD1 mouse, liver | subcutaneous, 1 mg/kg, 0.5 h |  | tissue concentration | 435 ng/mL |
| CC[C@H](C)C(=O)N1CCC(NC(=O)Nc2ccc(OC(F)(F)F)c(F)c2)CC1 |  |  | healthy volunteers | oral, 2 mg single dose |  | subjects with trichomoniasis TEAE | 16.7% |
| O=C(O)CCC(NP(=O)(O)OCCC[C@@H](NC(=O)CCC(NC(=O)CCCCCNC(=O)CCCCCNC(=O)c1ccc([18F])cc1)C(=O)O)C(=O)O)C(=O)O (some centres unmarked) | CWR22Rv1 tumour model |  | host not given, liver | intravenous, 2 h, tumour-bearing |  | tracer uptake | 0.25 %ID/g |
| CN[C@](C)(C[18F])C(=O)O | SK-OV-3 tumour model |  | host not given, liver | 2 h, tumour-bearing |  | tracer uptake | 2.2 %ID/g |
| COc1cc(C(=O)NCCOCCOCCOCCNC(=O)c2ccc([18F])nc2)ccc1NC(=O)C1NC(CC(C)(C)C)C(C#N)(c2ccc(Cl)cc2F)C1c1cccc(Cl)c1F (centres unmarked) | SJSA-1 tumour model |  | host not given, lung | 1 h, tumour-bearing |  | tracer uptake | 1.17 %ID/g |
| O=C(O)CCC(NP(=O)(O)OCCC[C@@H](NC(=O)CCC(NC(=O)c1ccc([18F])cc1)C(=O)O)C(=O)O)C(=O)O (some centres unmarked) | CWR22Rv1 tumour model |  | host not given, muscle | intravenous, 2 h, tumour-bearing |  | tracer uptake | 0.19 %ID/g |
